Results collected from several papers.
Every numbered part comes from another study and shows a few of its results, in no order. Positions count from the first letter of the parent shown.

Sample 1
Substance: PhoQ, residues 284 288 289 292 302 303 TLMATV
Technique: Sort-seq
Refers to: YFP reporter
Sample: E. coli
Setting: PhoQ-PhoP variant library
Added: 10 µM Mg2+
Reference: high Mg2+ state
Direction: higher = stronger signaling
It gave 2.72 for fold induction (PhoP, residues 12 14 15 18 19 QQAYL (Escherichia coli, UniProt P23836)).
PhoP, residues 12 14 15 18 19 LFHKL (Escherichia coli, UniProt P23836) — fold induction: 0.774.
For PhoP, residues 12 14 15 18 19 GMGLL (Escherichia coli, UniProt P23836): fold induction read 3.06.

Sample 2
Target: RING finger protein unkempt homolog, zinc fingers 1-6, SBP tag (UNK, Homo sapiens, UniProt Q9C0B0, residues 30-357)
UniProt Q9C0B0, sequence (30-357, looked up): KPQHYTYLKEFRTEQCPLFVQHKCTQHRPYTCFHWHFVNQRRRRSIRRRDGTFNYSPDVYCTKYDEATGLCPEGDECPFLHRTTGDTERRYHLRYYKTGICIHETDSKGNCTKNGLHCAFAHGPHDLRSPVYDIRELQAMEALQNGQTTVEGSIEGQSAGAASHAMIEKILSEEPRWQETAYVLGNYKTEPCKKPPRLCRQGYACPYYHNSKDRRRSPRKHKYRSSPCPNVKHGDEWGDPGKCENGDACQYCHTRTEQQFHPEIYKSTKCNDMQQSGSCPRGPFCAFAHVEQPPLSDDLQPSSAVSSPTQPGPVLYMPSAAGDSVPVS
Technique: RNA Bind-n-Seq
Molecule type: RNA
Sample: in vitro
Concentration: 100 nM
Setting: RNA with constant flanks, vertebrate orthologous sites, ends assumed
Reference: input RNA pool
Direction: higher = stronger binding
All sequences stand within: GGGAGUUCUACAGUCCGACGAUC … CAACAGAGGAUUGAGCAUCA
`AGGGAGAAGAGCUCACAAACUCAAAGGGAAACUAUGAAAGAGUUUCUAAGAGUUAAAAGCUAGGAAAGAUUAGAACAAUUUUAGAAAUGAGCAGUUAAAAAGAAAAGAAAAAAAAAGAAA` has a bound/input enrichment of 1.48 ratio.
`AGAAAAUUUUAACCAAGAUUCUGAAGGUAGAAAUACAGGACCGUGGUUAUCUUCAUCACUUAGGAAUAGAUGCACACCUUUGUUUUCUAGAAGACGGCGAGAAGGAAGAGAUGAAUCUUC` gave a bound/input enrichment of 1.18 ratio.
With `AGCAACUCAAGGAUUCAGAACUGGUUUUACAAAUGUCCCAAGCAGAUAUGGAACCAACGCUCGUGGUCAACCCCGACCGUAAUAAACACCAUUAUUUAUUAUACUUAAGGGUAUUGACUU` the bound/input enrichment was 0.208 ratio.
`GGUUAAUGUGUUAUUUAUUGAGUAUUGUUUAUGCUAAGCAUUGUGUUAGAUUUAAAAAAUUAGUGGAUUGACUCCACUUUGUUGUGUUGUUUUCAUUGUUGAAAAUAAAUAUAACUUUGU` has a bound/input enrichment of 0.735 ratio.
For `CAUUGGGUUACUCUUAUUAUCAAGUAGCUGGAAUUGUGAAGGUCGGAGUAGUUAGAUCUUUAGCUUUUAUUCCUUAUUUUUUUGUAUUACUAUCCAUGUGUAUAAAUUAUUGAUCAUGUU`, the bound/input enrichment was 2.4 ratio.
The bound/input enrichment of `UUGGGACCAGCUCUCCAAACAAGAAUAGUAGUAAAAGAAAUAAGCAGAAUGAUAUUUGUAUAGAAAAAACAGAAGUUAAAUCAUGCAAGAUAAAUGCUGUCAGUGUUCCAGGUCCUAAAG` is reported as 0.72 ratio.
`AAGGAGAAGAGCUCACAAACUCAAAGGAAAACUAGUAAAGCGUUUCUAAUAGUUAAAAGCUAGGAAAGAUUAGGACAAUUUUACAAAUGAGCAAUUAAAAAUAAAAGAAAAAGGAUAUGG` has a bound/input enrichment of 0.856 ratio.
For `CUCCACCACCCCUGGGUGCCUGACUCCAGUGAAGCACUCACCAGUGCUGCAAGGAGUCCAGAGUAUUUUUUUGCUGCUUCAGUCCCCAAUGCCUUCCAGCAGAAGUGGCAGUAGACUGUU`, the bound/input enrichment was 0.308 ratio.

Sample 3
Target: CCNE1, cyclin fold, Cln2 fusion (human)
Technique: yeast growth competition, sequencing
Sample: yeast
Setting: weak parent motif
Reference: not given
Direction: higher = stronger binding
Parent: MICAL3 docking peptide (human); LQLRRQLSFSEDS
`LQLRIQLSFSEDS [R5I]` — result for “normalised enrichment score”: 0.181.
`LQLRRQLNFSEDS [S8N]` — result for “normalised enrichment score”: 0.531.
`LTLRRQLSFSEDS [Q2T]`: “normalised enrichment score” 1.46.
`LQLRRQLSNSEDS [F9N]`: “normalised enrichment score” -0.0453.
Under “normalised enrichment score”, `LQLRRQLSFAEDS [S10A]` is recorded as 0.52.
`LQLRRQFSFSEDS [L7F]` — result for “normalised enrichment score”: -0.185.
`LQCRRQLSFSEDS [L3C]` — result for “normalised enrichment score”: 5.37.
Under “normalised enrichment score”, `LQLGRQLSFSEDS [R4G]` is recorded as -0.029.
For `LQWRRQLSFSEDS [L3W]`, “normalised enrichment score” read 2.91.
For `LQLRRQLSISEDS [F9I]`, “normalised enrichment score” read 0.0186.
`LQLRRQLSFNEDS [S10N]` — result for “normalised enrichment score”: 0.922.

Sample 4
Target: Interferon regulatory factor 3, full length, phosphomimetic (IRF3, Homo sapiens, UniProt Q14653, residues 1-427, S386D/S396D/S398D/S402D/T404D/S405D)
UniProt Q14653, sequence (whole entry, unmodified, looked up): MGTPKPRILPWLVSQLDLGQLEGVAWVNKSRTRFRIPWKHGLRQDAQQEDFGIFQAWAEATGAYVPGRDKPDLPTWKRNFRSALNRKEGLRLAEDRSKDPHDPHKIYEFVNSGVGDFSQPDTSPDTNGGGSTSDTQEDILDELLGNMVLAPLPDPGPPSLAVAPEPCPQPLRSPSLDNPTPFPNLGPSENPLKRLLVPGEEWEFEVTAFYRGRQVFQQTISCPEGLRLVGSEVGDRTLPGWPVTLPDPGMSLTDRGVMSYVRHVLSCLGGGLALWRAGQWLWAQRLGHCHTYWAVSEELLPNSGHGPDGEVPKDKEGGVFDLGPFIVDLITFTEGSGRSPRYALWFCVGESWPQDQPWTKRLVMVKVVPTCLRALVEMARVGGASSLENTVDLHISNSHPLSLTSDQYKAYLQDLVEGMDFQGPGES
Technique: protein-binding microarray
Molecule type: double-stranded DNA, one strand shown
Sample: in vitro
Concentration: 2540 nM top
Setting: 60-bp whole probe
Added: salmon DNA 0.4 mg/ml
Reference: random background probes
Direction: higher = stronger binding
All sequences stand within: GCCTAGCAC … GTCTTGATTCGCTTGACGCTGCTG
`TTAGAACTGAGAATCGATTAGTGCTAG`: “fitted relative affinity” -0.309 z-score.
Under “fitted relative affinity”, `GACGGTTTCGGGTTTCGGCACGTGCTA` is recorded as 5.53 z-score.
`GACGGTATTCTTTTCCTGACGTGCTAG`: “fitted relative affinity” 1.96 z-score.
`GACGATCTCAGCCTGGAGACGTGCTAG` — result for “fitted relative affinity”: -0.038 z-score.
`TTTGGACTGGGGACTGGGTTAGTGCTA`: “fitted relative affinity” -0.971 z-score.
`GAGGGTATCGGGTTTCGGGACGTGCTA` — result for “fitted relative affinity”: 2.04 z-score.
`TTAGATATCGGGACTGGCTTAGTGCTA`: “fitted relative affinity” -0.337 z-score.
For `TTAGGTTTCCTTACCCTTTAGTGCTAG`, “fitted relative affinity” read 6.4 z-score.
Under “fitted relative affinity”, `TCAAATCTCTTTCCTTAACTGTGCTAG` is recorded as 1.77 z-score.
Under “fitted relative affinity”, `AAGACTTTGCTCTGTGCGTAGGTGCTA` is recorded as -0.642 z-score.
For `GACGGTCTCCGACTGGGGACGTGCTAG`, “fitted relative affinity” read 0.5 z-score.
For `ATTGTTTCCTCTTTCACTGCGTGCTAG`, “fitted relative affinity” read 4.85 z-score.
`TCAACTCTCTAATTTTGACTGTGCTAG`: “fitted relative affinity” 0.234 z-score.
For `GACGCACTGGGTCTCGGGACGTGCTAG`, “fitted relative affinity” read -0.85 z-score.

For quick reference, copied from above (sample 3):
`LQLRIQLSFSEDS [R5I]` — result for “normalised enrichment score”: 0.181.
`LQLRRQLSNSEDS [F9N]`: “normalised enrichment score” -0.0453.
Under “normalised enrichment score”, `LQLRRQLSFAEDS [S10A]` is recorded as 0.52.
For `LQWRRQLSFSEDS [L3W]`, “normalised enrichment score” read 2.91.
